Assay results pooled from the literature.
Numbered parts are unrelated; each lists some results of a single study. Positions count from the first letter of the parent shown.

Sample 1 — method: RNAcompete; form: RNA; sample: in vitro; concentration: 20 nM; notes: 7-mer, probes averaged, single round; baseline: mean of 7-mers; direction: higher = stronger binding
Target: PABPC1L2, full length, GST fusion (mouse, UniProt A0ABA7IW68)
Residues (chain): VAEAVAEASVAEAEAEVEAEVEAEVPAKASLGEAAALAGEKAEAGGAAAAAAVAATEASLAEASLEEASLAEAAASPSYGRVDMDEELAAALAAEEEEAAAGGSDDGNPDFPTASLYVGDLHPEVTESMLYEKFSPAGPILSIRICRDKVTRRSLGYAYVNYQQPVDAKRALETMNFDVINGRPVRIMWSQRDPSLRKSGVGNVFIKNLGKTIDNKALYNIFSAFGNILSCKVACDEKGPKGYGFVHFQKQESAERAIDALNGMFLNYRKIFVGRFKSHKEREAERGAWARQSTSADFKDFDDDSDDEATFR
Sequence	7-mer Z-score
UGGUGAU	-0.135
UUGUCUC	-0.412
ACGGCAG	0.153
UCCGCAU	-0.287
CGAUUUU	-0.191
UUACGCC	-0.315
CUCCGAU	-0.277
UCUACAA	0.00798
GGUCUGC	-0.313
UAGAAGU	-0.0246
UCAUGUG	-0.286
CUUACAA	0.196
ACGACAU	-0.0881
UUAUUAC	-0.271
CAAUGAU	0.0152
ACGAUUU	-0.0446
GGAUUUA	0.403
GGCAUGA	0.0587
AAGAGGA	0.559
ACGAGCC	-0.159
ACGGAAA	0.802
ACGCGGU	-0.0391

Sample 2 — method: universal PBM; form: double-stranded DNA, one strand shown; sample: in vitro; concentration: not given; direction: higher = stronger binding
Target: Sal-like protein 4, full length isoform B (SALL4, Homo sapiens, UniProt Q9UJQ4-2, residues 1-616)
Notes: 8-mer, flanks averaged, mean of replicates
Sequence	E-score
ACTCCGAA	-0.242
AACGCCCG	-0.105
ACTAAAGC	0.0775
ACTATCAT	0.247
CCAAATTC	0.0192
GGCAACAC	-0.0207
GGGCGTAC	-0.114
CATACCAA	0.119
AGTGATCG	-0.0823
CGAATAGA	-0.184
ACAGTGGA	-0.00295
GTCAGCTA	-0.133
CGCGAGCA	-0.199
AGAGTCGG	-0.162
ATGTCGGC	-0.208
GCACCCCC	-0.296
ATGACGCC	-0.0812
GTCACACA	-0.0112
AATTCCAA	0.242
CTCTTCCC	-0.0603
CATCCAGA	-0.0926

Sample 3 — method: RNA Bind-n-Seq; form: RNA; sample: in vitro; concentration: 365 nM; baseline: no-protein control; direction: higher = stronger binding
Target: RNA binding protein fox-1 homolog 2, RRM domain, GST-SBP tag (RBFOX2, Homo sapiens, UniProt O43251-10, residues 100-194)
Notes: natural RNA segment, single round, ends assumed
Constant ends, left off below: GGGAGUUCUACAGUCCGACGAUC … UGGAAUUCUCGGGUGCCAA
Residues (chain): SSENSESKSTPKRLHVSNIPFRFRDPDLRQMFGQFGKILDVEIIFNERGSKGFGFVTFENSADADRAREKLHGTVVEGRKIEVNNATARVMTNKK
Sequence	RBNS enrichment (R)
UUUUUCUGAAAAAAUAUAUAUACAUAUAUUGCUUUAUUUGAAACAAAUUAAAAUAUGCUGCAUUUGACACCUGGCUAGUUUCUUUUAUUGAUACCCACCUAGUUAUUGAA	1.17
CAAAAGGAAGGUGAUAGGGAAUUAUGGAAGUCCAUCCAAGCCCCUGACACAGAGCCUUCUGUGCUGUUUCCUGUCCUAGGUUUGAGAGACCAAAUAUGAACUUGUGAGUU	0.322
UUUUUACCAUACCAACUUCUCUCCCAUCUCUAGGUGGCUCAGUCCAUGGCCACUCCCUGCCCCCAGCCUGGCUGGACAGCAAGGAAUCCACAGCCCACACGUGAGCUCCC	0.345
AUUACUUAAGUAUUUAAAUUAUGAAAGAAUAAUGCAGACUUUUUAUUAUUUCUUAACUGACUAGAAAGAGCCACCAGCAUUACUCUGUGCCUUUUGGACUUGAGUUUGUA	0.821
UGUUACAAAAUGUAACUGUUACCAUUGGAAAUUUCACAUGUCAAAGGAGGUUAGCCGUUAUUUACCAACUUUCAAGAACGUAAUCUUGUUCAAUAAGGUGAAAUAUCAAU	0.347
GUGGGGAGGGACUGCCUGAGGCCGCAGCUGGUGGGCCUCCUGCAUGUACUAGCAUCCGCAUUCCUCCCUCAGGGCAUGGUCUCAUCUCUGCAUCAGGAAUUUACCAGGAG	23.7
UAAAAACAGUUCACCUGUAAAUACUUUUUCCUUUUUCACCGUUGUAUUAUACAUGUAUAUGCUGGGUCCUUUUUCAGAAACUCUUUUCUUACCUGAGAGUUGUCUUGUUU	0.913
UCUGUCCUCAAACAGUGAACCCAGGCUGCAGCCUGAGACCUGGACUCUAGCCCCCAUCCAUCCUUCCCAUCUCCCAGCUAGAGGGAGAGCUGGGCUUUGGACAGAAAAGA	0.361
AUUAACAGCUGAACACCUGCAACUGCAAAUGUUUUUUGAUCCGACGUACUGAAAUAGGAAGUCAUGCUCUUCCCACCCUCCACCCACCAGAGUGGAACCCGCUGCAAAAU	1.21
GGCCUCCGUGAGCAUCUUUGUAGCUAGCAAUGAGGAAGUGCAGGUGUCUACAGGCCAUCACGUGGGGAGGCGCACCAGGCGACAGAGGAUGUGGUGGCCUUCCUCCUAGG	1.83
AGGCAGGGACCUCAGCUUUGUUAGGAAUAAGGCACAAGAAGUAUUUUCUGUAGCUAUUGUUUCCUCAGUCCUUCAAACUAAAAAAGUACAAAUAAAUAACCUAUGGCCAA	0.766
GUCUGGAGCUCCACCUUUGCAAAGAAAGGAAAAACACAAAUUGCCCCCAGAUUGGCCCAGUGGCAUGCCAUUAGGUGAUUUUGCAUAGGGGCCAUAUCAUUCAUGGCCAA	0.432

Sample 4 — target: CCND3, cyclin fold, Cln2 fusion (human); method: yeast growth competition, sequencing; sample: yeast; notes: strong parent motif; baseline: not given; direction: higher = stronger binding
Starting sequence: INSM1 docking peptide (human); PKAIRKLHFEDEV; partner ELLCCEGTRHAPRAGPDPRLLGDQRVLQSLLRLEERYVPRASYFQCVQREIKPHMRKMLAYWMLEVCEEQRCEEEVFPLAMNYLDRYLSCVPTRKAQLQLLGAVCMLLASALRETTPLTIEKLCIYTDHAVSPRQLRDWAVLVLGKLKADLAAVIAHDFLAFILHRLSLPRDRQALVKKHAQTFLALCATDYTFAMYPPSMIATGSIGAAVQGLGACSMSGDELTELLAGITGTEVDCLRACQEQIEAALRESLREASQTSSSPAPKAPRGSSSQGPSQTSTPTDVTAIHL
Substitution	normalised enrichment score
E12G	0.61
K6L	0.12
K2I	0.555
E10F	0.619
E12P	0.802
K2V	0.55
I4Q	1.03
R5G	0.0537
F9Y	0.108
H8Q	1.25
D11E	1.28
E10V	0.707
E10M	0.733
K6E	0.624
A3K	0.573
F9V	0.211
L7P	0.234
E12R	0.698
I4F	0.329
K6Y	0.669
E12Y	0.724
K6F	0.461

Sample 5 — method: DHFR PCA, deep sequencing; sample: yeast; together with: (+)-ABA 1.4 µM; baseline: wild-type fitted maximum; direction: higher = stronger binding
Target: ABI1, truncated, D143A, DHFR fusion (Arabidopsis thaliana)
Notes: methotrexate growth selection, single substitutions
Starting sequence: PYL1, truncated, DHFR fusion (Arabidopsis thaliana); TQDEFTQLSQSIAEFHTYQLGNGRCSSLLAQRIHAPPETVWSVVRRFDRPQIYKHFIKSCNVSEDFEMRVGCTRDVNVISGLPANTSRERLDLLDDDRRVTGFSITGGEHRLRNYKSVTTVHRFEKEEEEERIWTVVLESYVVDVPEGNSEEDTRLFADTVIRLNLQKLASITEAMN
Substitution	relative binding score
K168C	52.9%
V121K	-4.08%
P37N	6.77%
E67I	50.1%
L112R	-3.6%
S117G	3%
L91A	11.2%
I162N	0.00821%
H110E	17%
V70W	1.72%
G21W	8.35%
L20I	46.1%
T173M	10.5%
N149Y	7.89%
L20Y	43.7%
T101D	-3.56%

Sample 6 — target: CREB3L4, bZIP domain (human); method: DHFR protein complementation; sample: yeast; baseline: wild-type JUN-FOS pair; direction: higher = stronger binding
Notes: single substitutions, most at no-binding floor
Starting sequence: JUN, bZIP domain (human); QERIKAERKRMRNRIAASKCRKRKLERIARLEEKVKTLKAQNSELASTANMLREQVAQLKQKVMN; partner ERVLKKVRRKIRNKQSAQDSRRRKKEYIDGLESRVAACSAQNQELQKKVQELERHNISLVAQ
Substitution	binding fitness
L38N	-1.5 natural log
E44T	-1.44 natural log
K39T	-1.49 natural log
L52W	-1.5 natural log
Q55K	-1.14 natural log
E44L	-1.39 natural log
E32R	-1.44 natural log
E33R	-1.45 natural log
V35K	-1.62 natural log
L45N	-1.45 natural log
K36P	-1.5 natural log
I28T	-1.54 natural log
L45A	-1.47 natural log
Q41M	-1.52 natural log
Q55E	-1.55 natural log
E32D	-1.5 natural log
L59W	-1.34 natural log
L52V	-1.56 natural log
A46Y	-1.41 natural log
A46D	-1.23 natural log
S47D	-1.41 natural log
E54H	-1.62 natural log
E32P	-1.5 natural log
K39D	-1.46 natural log
A29G	-1.43 natural log

Sample 7 — method: RNA Bind-n-Seq; form: RNA; sample: in vitro; concentration: not given; baseline: input RNA pool; direction: higher = stronger binding
Target: RING finger protein unkempt homolog, zinc fingers 1-6, GST-SBP tag (UNK, Homo sapiens, UniProt Q9C0B0, residues 30-357)
Sequence of UniProt Q9C0B0 (30-357, looked up): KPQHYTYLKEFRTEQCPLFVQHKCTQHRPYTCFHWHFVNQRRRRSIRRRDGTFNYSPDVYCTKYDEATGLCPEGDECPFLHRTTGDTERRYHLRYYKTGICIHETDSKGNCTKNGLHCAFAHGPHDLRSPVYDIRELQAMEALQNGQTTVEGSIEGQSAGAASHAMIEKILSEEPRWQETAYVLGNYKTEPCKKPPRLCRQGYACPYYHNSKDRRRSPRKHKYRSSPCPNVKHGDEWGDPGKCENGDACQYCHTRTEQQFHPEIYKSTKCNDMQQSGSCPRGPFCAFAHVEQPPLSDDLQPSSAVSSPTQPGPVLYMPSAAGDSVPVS
Notes: RNA with constant flanks, human and mouse sites, ends assumed
Constant ends, left off below: GGGAGUUCUACAGUCCGACGAUC … CAACAGAGGAUUGAGCAUCA
Sequence	bound/input enrichment
GGUGCAUGGAACAUGAAUUCUUAACAGAGAUUUCAGAUUUCCUUGUCUUUGCUAAAUACAUAGUAUGAAACCCCUUAAUUUUUCUUGUUUAAUGAAUGGAGAACACAUGAGAAAAUCAGA	0.315 ratio
AAAGAGCAUUGGAAUCCGGCCAUUGUGGCAUUGGUGUACAACGUGUUGAAGGCAUUUAUGGAAAUGAACAGCACUAUGUUUGAUGAGCUGACAGCCACAUACAAGUCAGAUCGUCAGCGU	0.134 ratio
UUAUCUAAAACAGUGAGAAUUACCUUUGGAUUCAACUGCAGAAAUAAAGAUCAUUAUGGGAUAAUGAUGUAUCACAGAAAUAGACUCAUCAAAGCUUAUGAAAAAGUUGGAUGUCAGUUA	0.122 ratio
UUUUUUACACCAUACGUGUAUCCAGCCACAUGGCCAGAAGAUGACAUCUUCCGACAAGCUAUUAGUCUUCUGAUUGUAACAAAUGUUGGUGCUUACAUCCUUUAUUUCUUCUGUGCAACA	0.468 ratio
GAGUCACUUCCUCUGGUUGACACCCACUCAAAAAGAACACUCCUGAUUAAGACGGUUGAGACCAGAGAUGGACAGGUGAUCAAUGAGACUUCUCAGCAUCACGAUGACCUUGAAUAAAAA	0.117 ratio
GGCUCUGCACAGAAGGGCCUGCAAGUGGAUCUGCAGUCUGACGGGGCAGCAGCAGAAGAUAUAGUGGCAAGUGAGCAGUCUCUAGGCCAAAAACUUGUGAUCUGGGGAACAGAUGUAAAU	0.319 ratio
UUGAAGGUACUGGGAACAGCUUUUGAUCCUUUCUUAGGAGGAAAAAACUUCGAUGAAAAGUUAGUGGAACAUUUUUGUGCAGAAUUUAAAACUAAGUACAAGUUGGAUGCAAAAUCCAAA	0.324 ratio
GAGUAACAGAGGACAGCUGUUUUUUAACCCUCUUCUGCAAGUUUGUUGACCUACAUGGGCUAAUAUGGAUACUAAAAAUACUACAUUGAUCUAAGAAGAAACUAGCCUUGUGGAGUAUAU	0.309 ratio
AGGACCUCUUCCAGCCCUCUGGGAACCUCCCUGAGGUCCCAGGAGGAAAUCUGCACGGGGUGGGGGAGGGCCAGCCUCUUCCUGUUUUGUACAUAGAUUUAUUUUUCAGUUCCAAGAAAG	0.809 ratio
AAGAAAGGAGAGAAAAAGGAGAAGCAGCAGUCGGCAGCAGCAAGUACUGACUCCAAGCCUAUCGACGCAUCGCGUCUGGAUCUUCGAAUUGGUUGUAUUGUUACUGCCAAGAAGCACCCU	0.205 ratio
GUUUUGACUAUUUGAAUUUUCACAUAUUGGGCUUACCCAGAGUGGAGCACACCUCCAGGGCAUGUGGCUGACACUGGGUCAAUGUCUGCAUCUGUGCUGUGUGUGUAGUGUGGUUGGCCA	0.237 ratio

Excerpt of the above (sample 5):
Substitution	relative binding score
H110E	17%
S117G	3%
L112R	-3.6%
T101D	-3.56%
E67I	50.1%
I162N	0.00821%
P37N	6.77%
L91A	11.2%
L20Y	43.7%
G21W	8.35%
N149Y	7.89%
V70W	1.72%
V121K	-4.08%
K168C	52.9%
T173M	10.5%
L20I	46.1%
